Results gathered from unrelated publications.
Lines come from different studies, so protocols differ. ± gives the spread as reported.

| SMILES | cell line | test | setting | how to read | IC50 [µM] |
| --- | --- | --- | --- | --- | --- |
| O=c1[nH]c(=O)n([C@@H]2O[C@H](CSSc3ccccn3)[C@@H](O)[C@H](F)[C@H]2O)cc1F | human Fibroblast | cell growth or viability | – | – | 36 |
| COc1c(O)cc2oc3cc(O)c(CCC(C)C)c(O)c3c(=O)c2c1CCC(C)C | SMMC-7721 | cell growth or viability | 48 h | – | 15.7 |
| COc1ccc2nc(Cl)c(-c3nc4cc(Br)ccc4[nH]3)cc2c1 | BEL-7404 | cell growth or viability, MTT | 48 h | – | 11.3 |
| C1=[N+]2CCCC[N+]3=Cc4ccc5[n]4[Au-]23[n]2c1ccc2-c1nc2ccccc2nc1-5.F[P-](F)(F)(F)(F)F | CNS cancer cell lines | – | NCI60 panel mean | – | 10 |
| COc1cc(O)cc2c1-c1ccc(O)c(OC)c1CC2 | BV-2 | NO release, inhibitor, Griess | LPS-stimulated | – | 6.69 |
| C[C@]12CC/C(=N/O)C=C1CCC1C2CC[C@]2(C)/C(=C/c3ccccn3)CCC12 (some centres unmarked) | human Fibroblast | cell growth or viability, resazurin | 72 h | – | > 50 |
| CC(C)c1cccc(C(C)C)c1[N+]#[C][Pt-]([Cl])([Cl])=[C](Nc1cccc(CN[C](NC(C)(C)C)=[Au][Cl])c1)Nc1c(C(C)C)cccc1C(C)C | MRC5 | cell growth or viability | – | – | > 100 |
| COC(=O)C1=CO[C@@H](C)[C@@H]2Cn3ccc4c5ccccc5nc-4c3C[C@H]12 | NFF | cell growth or viability | – | – | > 200 |
| Fc1ccc2[nH]c(-c3cc4cc5c(cc4nc3Cl)OCO5)nc2c1 | BEL-7404 | cell growth or viability, MTT | 48 h | – | > 100 |
| COc1ccc(/N=N/C(=S)N2CCCCC2)cc1 | human Fibroblast | cell growth or viability, resazurin | 48 h | – | > 50 |
| CC(C)c1cccc(C(C)C)c1[N+]#[C][Pd-]([Cl])([Cl])=[C](Nc1cccc(CN[C](NC(C)(C)C)=[Au][Cl])c1)Nc1c(C(C)C)cccc1C(C)C | MRC5 | cell growth or viability | – | – | > 100 |
| N#Cc1cccc(-c2ccc(=O)n(Cc3cccc(-c4ncc(OCC5CCN(CC(=O)NCCOCCNc6cccc7c6C(=O)N(C6CCC(=O)NC6=O)C7=O)CC5)cn4)c3)n2)c1 (centres unmarked) | EBC-1 | cell growth or viability, CCK-8 | 72 h | – | 0.00585 |
| C[C@]1([N+](=O)[O-])C(=O)c2ccccc2O[C@@H]1CC(=O)Oc1ccccc1 | human Fibroblast | cell growth or viability, SRB | 96 h | – | > 100 |
| NCCNC(=O)c1ccc2[nH]c(/C(=N/Nc3ccc(F)cc3)c3ccc(O)cc3)nc2c1 | NCI-H441 | cell growth or viability, ATP luminescence | 72 h | – | 145 |
| N#Cc1cccc(-c2ccc(=O)n(Cc3cccc(-c4ncc(OCC5CCN(CCCCC(=O)Nc6cccc7c6C(=O)N(C6CCC(=O)NC6=O)C7=O)CC5)cn4)c3)n2)c1 (centres unmarked) | EBC-1 | cell growth or viability, CCK-8 | 72 h | – | 0.00945 |
| CC(=O)Oc1ccccc1/C=C/C(=O)Nc1nc(=O)n([C@@H]2O[C@H](C)[C@@H](OC(C)=O)[C@H]2OC(C)=O)cc1F | BXPC-3 | cell growth or viability, MTT | 72 h | – | 26.9 |
| CO[C@@H]1[C@@H](O[C@@H]2O[C@H](C)[C@@H](O[C@H]3C[C@@](C)(O)[C@@H](OC(=O)C4CCCCC4)[C@H](C)O3)[C@H](N(C)C)[C@H]2O)[C@@H](CC=O)C[C@@H](C)[C@@H](O[C@H]2CC[C@H](N(C)C)[C@@H](C)O2)/C=C/C=C/C[C@@H](C)OC(=O)C[C@H]1O | GES1 | cell growth or viability, CCK-8 | 72 h | – | 14.5 |
| CN(C)c1ccc(/C=C2\Oc3cc(O)ccc3C2=O)cc1 | PC-9 scrambled control | viability, MTT | 72 h | – | 14.1 |
| CCN(CC)c1ccc2c(c1)Oc1cc(N(CC)CC)ccc1C21c2ccccc2C(=O)N1N=Cc1c[c-]c(-c2ccccn2)cc1.Cc1c(C)c(-c2ccc(-c3ccccc3)cc2)[c-](C)c1C.[Cl-].[Ir+3] | HeLa human cancer cells | cell growth, MTT | 24 h | – | 28.2 ± 3.8 |
| c1ccc(-c2nc(-c3cccnc3)[nH]c2-c2ccccc2)cc1 | BT-474 | cell growth or viability, SRB | 24 h | – | 92.5 |
| COc1c(O)c(Br)c2oc3c(Br)c(O)c(CCC(C)C)c(O)c3c(=O)c2c1CCC(C)C | SMMC-7721 | cell growth or viability | 48 h | – | 3.98 |
| N#CCOc1ccc(-c2ccc3[nH]c4ncc(/C=C/c5ccccc5)cc4c3c2)cc1 | Ba/F3 NPM-ALK | cell proliferation, [3H]-thymidine incorporation | – | – | 1.6 |
| C#CCN(CC(=O)O[C@H]1[C@H](C)O[C@@H](O[C@H]2[C@H](N(C)C)[C@@H](O)[C@H](O[C@H]3[C@@H](CC=O)C[C@@H](C)[C@@H](O[C@H]4CC[C@H](N(C)C)[C@@H](C)O4)/C=C/C=C/C[C@@H](C)OC(=O)C[C@@H](O)[C@@H]3OC)O[C@@H]2C)C[C@@]1(C)O)Cc1ccc(C(F)(F)F)cc1 | GES1 | cell growth or viability, CCK-8 | 72 h | – | 4.65 |
| Cc1cc(C)c(-n2c3c([n+](-c4c(C)cc(C)cc4C)[c]2[Au-][Cl])-c2cccc4cccc-3c24)c(C)c1 | NTERA2 | cell growth or viability, MTT | 72 h | – | 11 |
| CC(C)c1cccc(C(C)C)c1N=[C](NCc1cccc(N)c1)[AuH][Cl] | MRC5 | cell growth or viability | – | – | > 100 |

| SMILES | cell line | test | setting | how to read | IC50 [µM] |
| --- | --- | --- | --- | --- | --- |
| COc1ccc(CN2C[C@H](O)[C@H](O)[C@@H]2CO)cc1 | CEM-DNR daunorubicin resistant | MTS | 72 h | – | 94 ± 10 |
| CC(=O)[O][Pt]([Cl])([Cl])[O]C(C)=O.N.N | five cancer cell lines | cytotoxicity | mean over panel | – | 29.2 |
| C=C1C(=O)O[C@H]2CC3=C[C@@H](C/C(C)=C/[C@@H](OC(=O)/C=C/c4ccccc4)[C@H]12)OC3=O | SK-MEL-2 | cell growth or viability, MTT | 24 h | – | 5.7 |
| CC(=O)C1=C(C)NC(SCC(=O)c2ccccc2)=C(C#N)C1c1sccc1C (centres unmarked) | HeLa with GR | NF-κB reporter transrepression | together with: TNF-α 5 ng/mL | reference: dexamethasone 10 µM | 1.86 ± 0.26 |
| CC(=O)N[C@H](CC(=O)O)C(=O)N[C@H](Cc1ccccc1)C(=O)N[C@@H](CC(=O)N[C@H](CCCNC(=N)N)C(N)=O)c1ccc2ccccc2c1 | BT-474 | cell growth or viability, ATP luminescence | 72 h | – | > 100 |
| CCCCCCCCn1c(-c2cccnc2)nc(-c2ccccc2)c1-c1ccccc1 | BT-474 | cell growth or viability, SRB | 48 h | – | 53.2 |
| Clc1cc2nc(-c3cc4cc5c(cc4nc3Cl)OCO5)[nH]c2cc1Cl | BEL-7404 | cell growth or viability, MTT | 48 h | – | > 100 |
| NC(=O)CNC(=O)[C@@H]1CCCN1C(=O)[C@H](Cc1ccc(O)cc1)NC(=O)[C@H](Cc1c[nH]c2ccccc12)NC(=O)[C@@H](Cc1c[nH]c2ccccc12)NC(=O)[C@H](Cc1c[nH]cn1)NC(=O)[C@H](CO)NC(=O)[C@H](Cc1c[nH]c2ccccc12)NC(=O)[C@H](Cc1c[nH]cn1)NC(=O)[C@@H]1CCC(=O)N1 | WPE-1-NB26-3 | cell growth, inhibitor, sulforhodamine B staining | four days | – | 0.0023 ± 0.0009 |
| COc1ccc2cc3[n+](cc2c1OCc1cn(Cc2ccc(OC(F)(F)F)cc2)nn1)CCc1cc2c(cc1-3)OCO2 | SMMC-7721 | cell growth or viability, MTT | – | – | 25 |
| C#CCN(CC(=O)O[C@H]1[C@H](C)O[C@@H](O[C@H]2[C@H](N(C)C)[C@@H](O)[C@H](O[C@H]3[C@@H](CC=O)C[C@@H](C)[C@@H](O[C@H]4CC[C@H](N(C)C)[C@@H](C)O4)/C=C/C=C/C[C@@H](C)OC(=O)C[C@@H](O)[C@@H]3OC)O[C@@H]2C)C[C@@]1(C)O)C(=O)c1ccc(C(F)(F)F)cc1 | GES1 | cell growth or viability, CCK-8 | 72 h | – | 1.96 |
| CN1CCCNC(=O)CC2(CCCCC2)CC(=O)NCCCN(C)CCCNc2cccc3c2C(=O)c2cccc(c2C3=O)NCCC1 | mouse bone marrow cells | cell proliferation, CCK-8 | 48 h | – | > 20 |
| Cc1nn(C)c(O)c1-c1nc2cc(Cl)c(Cl)cc2[nH]c1=O | HEL | cell growth or viability, resazurin | 72 h | – | 17.9 |
| CCCCCCCCCCCCCCCCn1c(-c2cccnc2)nc(-c2ccc(C)cc2)c1-c1ccc(C)cc1 | BT-474 | cell growth or viability, SRB | 48 h | – | > 100 |
| COc1ccc2cc3[n+](cc2c1OCc1cn(Cc2ccccc2Cl)nn1)CCc1cc2c(cc1-3)OCO2 | SMMC-7721 | cell growth or viability, MTT | – | – | 40 |
| COc1ccc2nc(Cl)c(-c3nc4cc(F)ccc4[nH]3)cc2c1 | BEL-7404 | cell growth or viability, MTT | 48 h | – | > 100 |
| COCCOc1ccc(-c2ccc3[nH]c4ncc(/C=C/c5ccccc5)cc4c3c2)cc1 | Ba/F3 NPM-ALK | cell proliferation, [3H]-thymidine incorporation | – | – | 5.8 |
| CC[C@@]12CCc3c(c4ccccc4n3C)CCN(C[C@H](O)[C@H]1O)C2 | BV-2 | cell growth or viability, MTT | – | – | 56.7 |
| CC/C(=C(\c1ccc(O)cc1)c1ccc(OCCN(C)CCOCCOCCOCCOCCOCCOCCOCCOCCOCCOCCOCCN(C)CCOc2ccc(/C(=C(/CC)c3ccccc3)c3ccc(O)cc3)cc2)cc1)c1ccccc1 | MCF7 (ER-positive) | cell growth | 96 h | – | 0.01 |
| CCc1ccc([C@H](C)CC(=O)NC(=O)N[C@@H]2O[C@H](CO)[C@@H](O)[C@H](O)[C@H]2O)cc1 | human T-lymphocyte | cell growth or viability | 72 h | – | > 250 |
| COc1cccc(Cn2cc(COc3c(OC)ccc4cc5[n+](cc34)CCc3cc4c(cc3-5)OCO4)nn2)c1 | SMMC-7721 | cell growth or viability, MTT | – | – | 21.7 |
| CC1=C2[O][Ru-]([Cl])[O+]=C2C=CN1CCCCCCN1C=CC2=[O+][Ru-]([Cl])[O]C2=C1C.Cc1ccc(C(C)C)cc1.Cc1ccc(C(C)C)cc1 | 5637-oxo oxoplatin-resistant | crystal violet | 96 h | – | > 20 |
| O=C(COc1ccc(-c2ccccc2)cc1)N[C@@H]1O[C@H](CO)[C@@H](O)[C@H](O)[C@H]1O | human T-lymphocyte | cell growth or viability | 72 h | – | > 250 |
| Cc1ccc2nc(Cl)c(-c3nc4cc(Cl)ccc4[nH]3)cc2c1 | BEL-7404 | cell growth or viability, MTT | 48 h | – | > 100 |
| COc1ccc(NC(=O)O[C@H]2[C@H](C)O[C@@H](O[C@H]3[C@H](N(C)C)[C@@H](O)[C@H](O[C@H]4[C@@H](CC=O)C[C@@H](C)[C@@H](O[C@H]5CC[C@H](N(C)C)[C@@H](C)O5)/C=C/C=C/C[C@@H](C)OC(=O)C[C@@H](O)[C@@H]4OC)O[C@@H]3C)C[C@@]2(C)O)cc1 | GES1 | cell growth or viability, CCK-8 | 72 h | – | > 50 |
| CC(=O)OC[C@H]1O[C@@H](NC(=O)NC(=O)[C@@H](C)Cc2ccc(C(C)C)cc2)[C@H](OC(C)=O)[C@@H](OC(C)=O)[C@@H]1OC(C)=O | human T-lymphocyte | cell growth or viability | 72 h | – | 32 |

Repeated from above:
| SMILES | cell line | test | setting | how to read | IC50 [µM] |
| --- | --- | --- | --- | --- | --- |
| C=C1C(=O)O[C@H]2CC3=C[C@@H](C/C(C)=C/[C@@H](OC(=O)/C=C/c4ccccc4)[C@H]12)OC3=O | SK-MEL-2 | cell growth or viability, MTT | 24 h | – | 5.7 |
| COc1c(O)cc2oc3cc(O)c(CCC(C)C)c(O)c3c(=O)c2c1CCC(C)C | SMMC-7721 | cell growth or viability | 48 h | – | 15.7 |
| COc1ccc(NC(=O)O[C@H]2[C@H](C)O[C@@H](O[C@H]3[C@H](N(C)C)[C@@H](O)[C@H](O[C@H]4[C@@H](CC=O)C[C@@H](C)[C@@H](O[C@H]5CC[C@H](N(C)C)[C@@H](C)O5)/C=C/C=C/C[C@@H](C)OC(=O)C[C@@H](O)[C@@H]4OC)O[C@@H]3C)C[C@@]2(C)O)cc1 | GES1 | cell growth or viability, CCK-8 | 72 h | – | > 50 |
